Published values pooled from the literature.
Compare with care: the assays were run in different laboratories. ± gives the spread as reported.
JAK2 SH2 domain: Tyrosine-protein kinase JAK2, SH2 domain (JAK2, Homo sapiens, UniProt O60674)
UniProt O60674, sequence (whole entry, looked up): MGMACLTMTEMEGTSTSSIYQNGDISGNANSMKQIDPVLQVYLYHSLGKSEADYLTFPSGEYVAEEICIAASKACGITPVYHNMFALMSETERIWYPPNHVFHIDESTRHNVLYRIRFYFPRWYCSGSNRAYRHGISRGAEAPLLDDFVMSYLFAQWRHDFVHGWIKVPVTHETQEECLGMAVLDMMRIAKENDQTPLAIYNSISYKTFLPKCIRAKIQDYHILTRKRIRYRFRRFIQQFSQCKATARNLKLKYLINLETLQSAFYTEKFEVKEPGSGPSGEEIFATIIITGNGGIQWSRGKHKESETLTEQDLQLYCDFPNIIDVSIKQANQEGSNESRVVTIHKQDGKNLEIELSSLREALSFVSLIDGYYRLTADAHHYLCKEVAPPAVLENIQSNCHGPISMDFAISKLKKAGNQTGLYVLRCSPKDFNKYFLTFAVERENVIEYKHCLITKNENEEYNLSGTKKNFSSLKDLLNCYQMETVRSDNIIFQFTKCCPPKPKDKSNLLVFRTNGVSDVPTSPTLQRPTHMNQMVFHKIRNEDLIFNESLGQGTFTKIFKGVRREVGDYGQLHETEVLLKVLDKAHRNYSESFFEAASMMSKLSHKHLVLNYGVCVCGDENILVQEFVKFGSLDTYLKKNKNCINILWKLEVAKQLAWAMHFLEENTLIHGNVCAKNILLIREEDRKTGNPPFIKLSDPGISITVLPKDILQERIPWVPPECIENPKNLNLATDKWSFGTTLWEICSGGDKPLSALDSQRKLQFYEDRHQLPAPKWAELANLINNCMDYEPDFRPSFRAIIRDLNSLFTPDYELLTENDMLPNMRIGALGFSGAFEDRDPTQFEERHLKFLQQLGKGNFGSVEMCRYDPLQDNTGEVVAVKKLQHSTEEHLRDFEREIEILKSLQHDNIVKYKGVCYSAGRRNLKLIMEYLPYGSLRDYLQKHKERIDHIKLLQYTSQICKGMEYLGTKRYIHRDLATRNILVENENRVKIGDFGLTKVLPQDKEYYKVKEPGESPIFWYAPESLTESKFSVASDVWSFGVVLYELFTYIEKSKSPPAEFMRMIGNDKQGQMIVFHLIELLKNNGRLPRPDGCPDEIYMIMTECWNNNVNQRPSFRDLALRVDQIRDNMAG
TetR-family regulator NalD: TetR-family regulator NalD (Pseudomonas aeruginosa, UniProt Q9HY46)
UniProt P00512, sequence (whole entry, unmodified, looked up): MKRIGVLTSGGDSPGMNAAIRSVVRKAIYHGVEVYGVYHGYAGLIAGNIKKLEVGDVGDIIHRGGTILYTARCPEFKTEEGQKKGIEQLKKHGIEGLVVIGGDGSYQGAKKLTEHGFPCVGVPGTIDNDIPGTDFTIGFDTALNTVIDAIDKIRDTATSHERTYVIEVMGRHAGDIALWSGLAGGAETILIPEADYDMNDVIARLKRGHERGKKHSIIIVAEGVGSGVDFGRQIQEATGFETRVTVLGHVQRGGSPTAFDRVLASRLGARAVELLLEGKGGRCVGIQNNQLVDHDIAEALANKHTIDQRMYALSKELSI
UniProt P22748, sequence (whole entry, looked up): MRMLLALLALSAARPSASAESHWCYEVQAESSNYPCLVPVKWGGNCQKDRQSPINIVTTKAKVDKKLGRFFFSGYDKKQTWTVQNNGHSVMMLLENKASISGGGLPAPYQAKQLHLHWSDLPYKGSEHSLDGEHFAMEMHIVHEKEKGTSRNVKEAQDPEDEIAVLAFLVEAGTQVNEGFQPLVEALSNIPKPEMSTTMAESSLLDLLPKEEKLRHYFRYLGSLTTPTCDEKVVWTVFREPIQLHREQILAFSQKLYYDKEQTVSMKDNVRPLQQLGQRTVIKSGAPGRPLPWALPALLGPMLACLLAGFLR
UniProt P46109, sequence (whole entry, looked up): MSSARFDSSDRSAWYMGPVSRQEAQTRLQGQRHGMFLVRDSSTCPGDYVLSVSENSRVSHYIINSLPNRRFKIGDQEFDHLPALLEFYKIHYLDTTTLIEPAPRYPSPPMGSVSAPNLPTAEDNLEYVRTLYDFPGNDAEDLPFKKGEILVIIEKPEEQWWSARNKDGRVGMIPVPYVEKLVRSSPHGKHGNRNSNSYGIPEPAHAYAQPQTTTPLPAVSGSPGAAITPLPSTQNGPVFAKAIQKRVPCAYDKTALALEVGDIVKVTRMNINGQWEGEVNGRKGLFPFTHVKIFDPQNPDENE
UniProt Q88FY2, sequence (whole entry, unmodified, looked up): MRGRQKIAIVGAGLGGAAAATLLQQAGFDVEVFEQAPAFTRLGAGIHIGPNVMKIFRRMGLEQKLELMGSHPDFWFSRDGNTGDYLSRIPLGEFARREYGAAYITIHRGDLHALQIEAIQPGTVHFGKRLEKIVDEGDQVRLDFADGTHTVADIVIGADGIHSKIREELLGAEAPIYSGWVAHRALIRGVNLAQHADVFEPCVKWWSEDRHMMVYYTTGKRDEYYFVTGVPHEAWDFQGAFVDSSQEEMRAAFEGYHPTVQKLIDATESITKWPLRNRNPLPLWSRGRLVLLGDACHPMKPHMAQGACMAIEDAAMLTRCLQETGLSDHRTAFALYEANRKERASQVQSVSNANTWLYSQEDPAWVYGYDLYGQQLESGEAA
UniProt O35082, sequence (whole entry, looked up): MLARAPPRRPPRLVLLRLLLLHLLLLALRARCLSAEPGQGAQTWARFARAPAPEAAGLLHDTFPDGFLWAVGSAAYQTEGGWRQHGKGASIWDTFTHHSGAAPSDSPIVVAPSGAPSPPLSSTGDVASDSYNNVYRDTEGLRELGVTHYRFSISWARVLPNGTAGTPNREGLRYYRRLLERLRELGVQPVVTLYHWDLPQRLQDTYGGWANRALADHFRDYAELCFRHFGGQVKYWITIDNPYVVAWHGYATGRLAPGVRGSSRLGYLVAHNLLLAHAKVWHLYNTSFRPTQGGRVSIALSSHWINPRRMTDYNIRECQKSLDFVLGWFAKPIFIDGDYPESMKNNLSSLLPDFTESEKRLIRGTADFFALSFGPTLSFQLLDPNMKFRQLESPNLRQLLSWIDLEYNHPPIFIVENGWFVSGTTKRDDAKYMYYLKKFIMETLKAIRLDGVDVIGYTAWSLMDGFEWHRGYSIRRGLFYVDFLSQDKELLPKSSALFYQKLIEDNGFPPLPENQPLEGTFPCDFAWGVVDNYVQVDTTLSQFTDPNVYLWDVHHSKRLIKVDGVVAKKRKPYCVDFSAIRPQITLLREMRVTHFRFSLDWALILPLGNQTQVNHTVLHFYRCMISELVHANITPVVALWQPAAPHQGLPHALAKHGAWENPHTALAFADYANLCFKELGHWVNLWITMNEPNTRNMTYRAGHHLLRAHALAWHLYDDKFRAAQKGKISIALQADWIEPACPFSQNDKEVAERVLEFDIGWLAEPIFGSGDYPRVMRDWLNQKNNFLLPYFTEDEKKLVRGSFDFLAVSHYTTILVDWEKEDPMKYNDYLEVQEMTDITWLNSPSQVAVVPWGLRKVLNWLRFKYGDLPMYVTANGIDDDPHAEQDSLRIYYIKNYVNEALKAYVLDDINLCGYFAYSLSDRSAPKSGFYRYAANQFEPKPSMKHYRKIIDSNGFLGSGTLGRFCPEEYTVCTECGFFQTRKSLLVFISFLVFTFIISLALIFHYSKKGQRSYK
UniProt P52630, sequence (whole entry, looked up): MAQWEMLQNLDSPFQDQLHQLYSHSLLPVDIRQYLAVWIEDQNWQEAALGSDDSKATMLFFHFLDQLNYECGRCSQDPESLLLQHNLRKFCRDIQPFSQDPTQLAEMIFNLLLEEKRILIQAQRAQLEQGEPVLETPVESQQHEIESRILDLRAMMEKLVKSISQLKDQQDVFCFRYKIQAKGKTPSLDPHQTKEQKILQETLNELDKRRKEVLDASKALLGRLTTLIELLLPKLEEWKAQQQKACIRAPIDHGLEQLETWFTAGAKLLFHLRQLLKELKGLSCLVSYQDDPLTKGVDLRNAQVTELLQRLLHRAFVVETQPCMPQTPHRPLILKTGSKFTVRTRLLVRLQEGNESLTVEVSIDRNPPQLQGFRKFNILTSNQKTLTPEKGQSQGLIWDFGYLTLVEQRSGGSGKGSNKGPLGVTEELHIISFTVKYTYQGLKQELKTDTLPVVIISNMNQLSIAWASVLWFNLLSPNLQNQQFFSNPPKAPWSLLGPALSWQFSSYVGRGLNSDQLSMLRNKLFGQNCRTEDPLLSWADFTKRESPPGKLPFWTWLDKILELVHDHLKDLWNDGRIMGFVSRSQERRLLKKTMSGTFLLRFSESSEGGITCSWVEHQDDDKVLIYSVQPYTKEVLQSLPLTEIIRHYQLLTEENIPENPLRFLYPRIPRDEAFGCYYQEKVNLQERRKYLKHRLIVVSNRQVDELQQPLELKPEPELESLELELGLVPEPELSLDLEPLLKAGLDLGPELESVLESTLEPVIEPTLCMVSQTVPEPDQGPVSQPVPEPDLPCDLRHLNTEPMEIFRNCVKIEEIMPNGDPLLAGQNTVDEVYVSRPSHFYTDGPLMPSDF
UniProt P50750, sequence (whole entry, looked up): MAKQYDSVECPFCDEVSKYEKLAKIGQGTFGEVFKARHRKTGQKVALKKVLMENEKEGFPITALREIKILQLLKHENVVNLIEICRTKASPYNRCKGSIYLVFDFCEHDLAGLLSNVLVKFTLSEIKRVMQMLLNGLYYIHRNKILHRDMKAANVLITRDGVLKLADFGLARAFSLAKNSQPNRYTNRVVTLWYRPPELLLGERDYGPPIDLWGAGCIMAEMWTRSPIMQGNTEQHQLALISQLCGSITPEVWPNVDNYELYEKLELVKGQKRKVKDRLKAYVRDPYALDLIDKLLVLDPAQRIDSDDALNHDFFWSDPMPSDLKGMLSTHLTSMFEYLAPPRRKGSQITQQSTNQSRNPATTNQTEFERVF
UniProt Q92PC8, sequence (whole entry, unmodified, looked up): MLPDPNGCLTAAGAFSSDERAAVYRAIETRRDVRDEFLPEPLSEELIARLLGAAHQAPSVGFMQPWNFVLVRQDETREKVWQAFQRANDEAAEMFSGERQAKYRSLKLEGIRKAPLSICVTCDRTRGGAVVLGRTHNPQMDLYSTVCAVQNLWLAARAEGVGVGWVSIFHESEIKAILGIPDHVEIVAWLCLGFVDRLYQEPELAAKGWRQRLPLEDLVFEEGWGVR

| Compound | target | test | system | setting | Kd [µM] |
| --- | --- | --- | --- | --- | --- |
| CSCC[C@H](NC(=O)[C@H](Cc1ccc(OP(=O)(O)O)cc1)NC(=O)CNC(=O)CNC(=O)[C@H](CC(=O)O)NC(=O)[C@H](CO)NC(=O)[C@H](CCC(=O)O)NC(=O)CNC(=O)[C@@H](NC(=O)[C@H](CC(C)C)NC(=O)[C@H](CO)NC(=O)c1ccc2c(c1)C(=O)OC21c2ccc(N(C)C)cc2Oc2cc(N(C)C)ccc21)[C@@H](C)O)C(=O)N[C@@H](CC(=O)O)C(=O)N[C@@H](CCSC)C(=O)N[C@@H](CO)C(=O)N[C@@H](CCCCN)C(=O)N[C@@H](CC(=O)O)C(=O)N[C@@H](CCC(=O)O)C(=O)N[C@@H](CC(=O)O)C(=O)O | JAK2 SH2 domain | binding |  |  | 1.41 |
| COC(=O)C1=CCCN(C)C1 | Acetyl-CoA acetyltransferase, mitochondrial (Homo sapiens, UniProt P24752) | binding, thermal shift |  |  | 33.8 ± 4.4 |
| C[N+](C)(C)[C@@H](Cc1c[nH]c(=S)[nH]1)C(=O)[O-] | egtUBC (Streptococcus pneumoniae, UniProt A0A0H2ZQB9) | binding |  |  | 0.111 |
| Nc1cc2nc3ccccc3nc2cc1O | TetR-family regulator NalD | surface plasmon resonance |  | 25 °C | 17.6 |
| C[N+](C)(C)[C@@H](Cc1c[nH]c(=S)[nH]1)C(=O)[O-] | egtUBC (Streptococcus pneumoniae, UniProt A0A0H2ZQB9, T274G) | binding |  |  | 0.0435 |
| CC[C@H](C)[C@H](NC(=O)[C@H](CC(=O)O)NC(=O)[C@H](C)NC(=O)[C@H](Cc1ccc(O)cc1)NC(=O)[C@H](CCCCN)NC(=O)c1ccc2c(c1)C(=O)OC21c2ccc(N(C)C)cc2Oc2cc(N(C)C)ccc21)C(=O)N[C@@H](CCC(=O)O)C(=O)N[C@@H](CO)C(=O)N[C@@H](CO)C(=O)N[C@@H](CC(N)=O)C(=O)N[C@@H](Cc1ccc(OP(=O)(O)O)cc1)C(=O)N[C@@H](CCSC)C(=O)N[C@@H](C)C(=O)N1CCC[C@H]1C(=O)N[C@@H](Cc1ccc(O)cc1)C(=O)N[C@@H](CC(=O)O)C(=O)N[C@@H](CC(N)=O)C(=O)N[C@@H](Cc1ccc(O)cc1)C(=O)N[C@@H](CC(=O)O)C(=O)O | Tyrosine-protein kinase Fgr, SH2 domain (FGR, Homo sapiens, UniProt P09769) | binding |  |  | 1.25 |
| CC(C)C[C@H](NC(=O)CNC(=O)[C@H](CCCNC(=N)N)NC(=O)c1ccc2c(c1)C(=O)OC21c2ccc(O)cc2Oc2cc(O)ccc21)C(=O)N[C@@H](Cc1c[nH]c2ccccc12)C(=O)N[C@@H](Cc1ccc(O)cc1)C(=O)N[C@@H]1CSC[C@@H](C(=O)N[C@@H](Cc2c[nH]c3ccccc23)C(=O)NCC(=O)N[C@@H](CCCNC(=N)N)C(=O)N[C@H](C(=O)NCC(=O)N[C@@H](CCCNC(=N)N)C(=O)N[C@@H](CCCNC(=N)N)C(=O)NCCCOCCOCCOCCCNC(=O)CCC(=O)NCCCOCCOCCOCCCNC(=O)CCC(=O)NCCCOCCOCCOCCCNC(=O)CCC(=O)N[C@@H](C)C(=O)O)C(C)C)NC(=O)[C@H](CO)NC(=O)[C@H](CC(C)C)NC1=O | srtA (Staphylococcus aureus, UniProt Q2FV99) | binding, fluorescence polarization |  | pH 7.5 | 11.3 ± 0.75 |
| CC[C@H](C)[C@H](NC(=O)[C@H](C)NC(=O)[C@H](CCC(=O)O)NC(=O)[C@H](CC(=O)O)NC(=O)[C@H](Cc1ccccc1)NC(=O)[C@@H](NC(=O)[C@H](C)N)C(C)C)C(=O)N[C@@H](CC(C)C)C(=O)N[C@H](C(=O)N[C@H](C(=O)N[C@@H](Cc1ccccc1)C(=O)N[C@@H](Cc1c[nH]cn1)C(=O)N1CCC[C@H]1C(=O)N[C@@H](CCCCN)C(=O)O)[C@@H](C)CC)[C@@H](C)O | Glutamine synthetase (GLUL, Homo sapiens, UniProt P15104, P208A) | SPR |  | P227A mutant | 662 |
| CN(CC(=O)O)C(=N)NP(=O)(O)O | Creatine kinase U-type, mitochondrial (CKMT1A, Homo sapiens, UniProt P12532, E265Q) | microscale thermophoresis |  | pH 8.5, E227Q mutant, no substrate | 119 ± 4 |
| CSCC[C@H](NC(=O)[C@@H]1CCCN1)C(=O)N[C@@H](C)C(=O)N[C@@H](CO)C(=O)N[C@@H](CC(=O)O)C(=O)N1CCC[C@H]1C(=O)N[C@@H](CC(C)C)C(=O)NCC(=O)N[C@H](C(=O)N[C@H](C(=O)N[C@@H](CCCNC(=N)N)C(=O)N1CCC[C@H]1C(=O)N[C@@H](CCCNC(=N)N)C(=O)N[C@@H](C)C(=O)N[C@@H](CCCNC(=N)N)C(=O)N[C@@H](C)C(N)=O)C(C)C)C(C)C | Klotho (Kl, Mus musculus, UniProt O35082) | competitive BLI | mouse | 30 °C | > 5 |
| O=C(CO)[C@@H](O)[C@H](O)[C@H](O)COP(=O)(O)O | pfkA (Geobacillus stearothermophilus, UniProt P00512, S159A) |  |  |  | 25 ± 3 |
| CC[C@H](CO)Nc1nc(NCc2ccc(-c3ccccn3)cc2)c2ncn(C(C)C)c2n1 | Cyclin-dependent kinase 9, with cyclin T1 (CDK9, Homo sapiens, UniProt P50750) | affinity chromatography competition | SH-SY5Y cell extract |  | 0.378 |
| CSCC[C@H](NC(=O)CNC(=O)[C@H](Cc1ccccc1)NC(=O)[C@H](CC(=O)O)NC(=O)CNC(=O)c1ccc2c(c1)C(=O)OC21c2ccc(N(C)C)cc2Oc2cc(N(C)C)ccc21)C(=O)N[C@@H](CO)C(=O)N[C@@H](CCCNC(=N)N)C(=O)N[C@@H](CC(=O)O)C(=O)N[C@H](C(=O)N[C@@H](Cc1ccc(OP(=O)(O)O)cc1)C(=O)N[C@@H](CO)C(=O)N[C@H](C(=O)N[C@@H](CC(=O)O)C(=O)N[C@@H](Cc1ccc(O)cc1)C(=O)N[C@@H](Cc1ccc(O)cc1)C(=O)N[C@@H](CCCNC(=N)N)C(=O)N[C@H](C(=O)N[C@@H](CC(=O)O)C(=O)O)C(C)C)[C@@H](C)O)C(C)C | Crk-like protein, SH2 domain (Homo sapiens, UniProt P46109) | binding |  |  | 0.821 |
| O=C(O)c1ccc(O)nc1 | 6-hydroxynicotinate 3-monooxygenase (nicC, Pseudomonas putida, UniProt Q88FY2, H47Q) | binding |  |  | 1100 ± 100 |
| CC1(C)O[C@@H]2[C@@H](CO[C@@]3(COS(N)(=O)=O)OC(C)(C)O[C@@H]23)O1 | Carbonic anhydrase 4 (CA4, Homo sapiens, UniProt P22748) | binding |  |  | 0.045 |
| CSCC[C@H](NC(=O)[C@H](CC(C)C)NC(=O)[C@H](C)NC(=O)[C@H](CCCNC(=N)N)NC(=O)[C@H](Cc1ccc(OP(=O)(O)O)cc1)NC(=O)[C@H](Cc1ccccc1)NC(=O)[C@H](CC(N)=O)NC(=O)[C@H](CO)NC(=O)[C@H](CC(=O)O)NC(=O)[C@@H](NC(=O)[C@@H]1CCCN1C(=O)[C@H](CO)NC(=O)[C@@H]1CCCN1C(=O)[C@H](CC(C)C)NC(=O)c1ccc2c(c1)C(=O)OC21c2ccc(N(C)C)cc2Oc2cc(N(C)C)ccc21)[C@@H](C)O)C(=O)N[C@@H](CC(=O)O)C(=O)N[C@@H](CCC(=O)O)C(=O)N[C@@H](CCC(=O)O)C(=O)N[C@@H](CC(=O)O)C(=O)O | Tyrosine-protein kinase ZAP-70, SH2 domains (ZAP70, Homo sapiens, UniProt P43403) | binding |  |  | 1.65 |
| Cc1cc2nc3c(=O)[nH]c(=O)nc-3n(C[C@H](O)[C@H](O)[C@H](O)COP(=O)(O)O)c2cc1C | 5,6-dimethylbenzimidazole synthase (bluB, Rhizobium meliloti, UniProt Q92PC8, R34E) | binding | Sinorhizobium meliloti |  | 11 ± 1 |
| CC(C)C[C@H](NC(=O)[C@@H](NC(=O)[C@H](CO)NC(=O)[C@H](CO)NC(=O)[C@@H](NC(=O)[C@H](CC(=O)O)NC(=O)[C@H](CC(C)C)NC(=O)[C@@H]1CCCN1C(=O)[C@H](CO)NC(=O)c1ccc2c(c1)C(=O)OC21c2ccc(N(C)C)cc2Oc2cc(N(C)C)ccc21)[C@@H](C)O)C(C)C)C(=O)N[C@@H](Cc1ccc(OP(=O)(O)O)cc1)C(=O)N[C@H](C(=O)N[C@@H](C)C(=O)N[C@H](C(=O)N[C@@H](CCC(N)=O)C(=O)N1CCC[C@H]1C(=O)N[C@@H](CC(N)=O)C(=O)N[C@@H](CCC(=O)O)C(=O)N[C@@H](CC(=O)O)C(=O)O)C(C)C)[C@@H](C)O | JAK2 SH2 domain | binding |  |  | 1.4 |
| C=C(OP(=O)(O)O)C(=O)O | pfkA (Geobacillus stearothermophilus, UniProt P00512, D12A) |  |  |  | 0.45 ± 0.01 |
| CC[C@H](C)[C@H](NC(=O)[C@H](Cc1ccc(OP(=O)(O)O)cc1)NC(=O)[C@H](CCC(=O)O)NC(=O)[C@H](Cc1c[nH]cn1)NC(=O)CNC(=O)[C@H](CC(=O)O)NC(=O)[C@H](CO)NC(=O)[C@H](CO)NC(=O)[C@@H](NC(=O)[C@H](CO)NC(=O)[C@H](CCC(=O)O)NC(=O)c1ccc2c(c1)C(=O)OC21c2ccc(N(C)C)cc2Oc2cc(N(C)C)ccc21)C(C)C)C(=O)N[C@@H](Cc1ccc(O)cc1)C(=O)N[C@H](C(=O)N[C@@H](CC(=O)O)C(=O)N1CCC[C@H]1C(=O)N[C@@H](CCSC)C(=O)N[C@@H](CCC(N)=O)C(=O)N[C@@H](CC(=O)O)C(=O)O)C(C)C | JAK2 SH2 domain | binding |  |  | 1.96 |
| CSCC[C@H](N)C(=O)N[C@@H](C)C(=O)N[C@@H](C)C(=O)N[C@H](C(=O)N[C@@H](C)C(=O)NCC(=O)N[C@@H](CC(C)C)C(=O)N[C@@H](Cc1ccc(O)cc1)C(=O)NCC(=O)N[C@@H](CC(C)C)C(=O)NCC(=O)N[C@@H](CCC(=O)O)C(=O)N[C@@H](CC(=O)O)C(=O)N[C@@H](CCCNC(=N)N)C(=O)N[C@@H](CCC(N)=O)C(=O)N[C@@H](Cc1c[nH]cn1)C(=O)N[C@@H](CCCNC(=N)N)C(=O)N[C@@H](CCCCN)C(=O)N[C@@H](CCCCN)C(=O)N[C@@H](CCC(N)=O)C(N)=O)C(C)C | Sh, DEL6-46 (Drosophila melanogaster, UniProt P08510) | ion current, blocker, inside-out patch clamp | Xenopus oocytes | range over 10 µM, pH 7.0, 22–24 °C, at 0 mV | 7.5 |
| CO[C@@H]1[C@@H](OC(N)=O)[C@@H](O)[C@H](Oc2ccc3c(O)c(NC(=O)c4ccc(O)c(CC=C(C)C)c4)c(=O)oc3c2C)OC1(C)C | TetR-family regulator NalD | microscale thermophoresis |  |  | 36.8 |
| CC[C@H](C)[C@H](NC(=O)[C@H](CC(=O)O)NC(=O)[C@H](C)NC(=O)[C@H](Cc1ccc(OP(=O)(O)O)cc1)NC(=O)[C@H](CCCCN)NC(=O)[C@@H](NC(=O)[C@H](CC(=O)O)NC(=O)CNC(=O)[C@H](CCCCN)NC(=O)[C@H](CCSC)NC(=O)[C@H](CC(=O)O)NC(=O)[C@H](CC(C)C)NC(=O)[C@H](CCSC)NC(=O)c1ccc2c(c1)C(=O)OC21c2ccc(N(C)C)cc2Oc2cc(N(C)C)ccc21)C(C)C)C(=O)N[C@@H](CCC(=O)O)C(=O)N[C@@H](CO)C(=O)N[C@@H](CO)C(=O)N[C@@H](CC(N)=O)C(=O)N[C@@H](CC(=O)O)C(=O)O | Signal transducer and activator of transcription 2, SH2 domain (Homo sapiens, UniProt P52630) | binding |  |  | 0.672 |

A few entries again:
| Compound | target | test | system | setting | Kd [µM] |
| --- | --- | --- | --- | --- | --- |
| CSCC[C@H](NC(=O)[C@@H]1CCCN1)C(=O)N[C@@H](C)C(=O)N[C@@H](CO)C(=O)N[C@@H](CC(=O)O)C(=O)N1CCC[C@H]1C(=O)N[C@@H](CC(C)C)C(=O)NCC(=O)N[C@H](C(=O)N[C@H](C(=O)N[C@@H](CCCNC(=N)N)C(=O)N1CCC[C@H]1C(=O)N[C@@H](CCCNC(=N)N)C(=O)N[C@@H](C)C(=O)N[C@@H](CCCNC(=N)N)C(=O)N[C@@H](C)C(N)=O)C(C)C)C(C)C | Klotho (Kl, Mus musculus, UniProt O35082) | competitive BLI | mouse | 30 °C | > 5 |
| O=C(CO)[C@@H](O)[C@H](O)[C@H](O)COP(=O)(O)O | pfkA (Geobacillus stearothermophilus, UniProt P00512, S159A) |  |  |  | 25 ± 3 |
| CC[C@H](CO)Nc1nc(NCc2ccc(-c3ccccn3)cc2)c2ncn(C(C)C)c2n1 | Cyclin-dependent kinase 9, with cyclin T1 (CDK9, Homo sapiens, UniProt P50750) | affinity chromatography competition | SH-SY5Y cell extract |  | 0.378 |
